{"data": "Measurements from different studies", "note": "Values joined by “and” are separate records of one study, mostly repeats; a detail may differ. Numbers after ± are the reported error."}
{"SMILES": "COc1cc2c3c(n(CCCN4CCOCC4)c(=O)c2cc1OC)-c1cc2c(cc1C3=O)OCO2", "system": "beagle dog, male, plasma", "conditions": "intravenous infusion, 50 mg/m^2, 1 h infusion, vehicle 1", "endpoint": "t1/2", "value": "6.6 ± 1.7 h"}
{"SMILES": "CCN(CC)CCOC(=O)c1ccc(N)cc1", "test": "LC-MS", "system": "BALB/c nude mouse, plasma", "conditions": "2 µM, 0.5 h", "endpoint": "remaining compound", "value": "0.2%"}
{"SMILES": "COc1cc([C@H]2OC[C@H]3[C@@H]2CO[C@@H]3c2ccc(O[C@@H]3O[C@H](CO)[C@@H](O)[C@H](O)[C@H]3O)c(OC)c2)ccc1O[C@@H]1O[C@H](CO)[C@@H](O)[C@H](O)[C@H]1O", "test": "post-procedure stability", "system": "rat plasma", "conditions": "1000 ng/mL, 1 h, room temperature", "endpoint": "accuracy", "value": "99.2%"}
{"SMILES": "COCc1cc(C(=O)Nc2cc([C@H]3CC[C@@H](OC(=O)NC(C)C)C3)[nH]n2)n(C)n1", "system": "OVCAR-3 xenograft, NOD/SCID gamma mice, plasma", "conditions": "oral, 175 twice daily, tumour growth inhibition study", "endpoint": "AUC(0-24h)", "value": "46.6 µM·h"}
{"SMILES": "COc1cccc(-c2n[nH]c(SCc3ccccn3)n2)c1OC", "system": "Sprague-Dawley rat, female, plasma", "conditions": "oral gavage, 10 mg/kg", "endpoint": "Cmax", "value": "14900 ng/mL"}
{"SMILES": "Cc1c(-c2ccc(N3CCc4cccc(C(=O)Nc5nc6ccccc6s5)c4C3)nc2C(=O)O)cnn1CC12CC3(C)CC(C)(C1)CC(OCCNCC[C@H](O)CO)(C3)C2", "system": "beagle dog, male, anaesthetised", "conditions": "intravenous infusion, 0.3 mg/kg/min, 75 min", "how to read": "relative to: vehicle", "endpoint": "dP/dt at 50 change", "value": "-25%"}
{"SMILES": "Cc1ccc(Sc2ccccc2N2CCNCC2)c(C)c1", "test": "refers to: AST increased", "system": "healthy adult men", "conditions": "oral, 10 mg daily, 12 days", "endpoint": "participants with TEAE", "value": "0%"}
{"SMILES": "CO[C@H]1C[C@@H]2CC[C@@H](C)[C@@](O)(O2)C(=O)C(=O)N2CCCC[C@H]2C(=O)O[C@H]([C@H](C)C[C@@H]2CC[C@@H](OC(=O)NCCOCCOCCOCCOCCOCCOCCOCCOCCC(=O)N3CCc4cc(Cn5nc(-c6ccc7oc(N)nc7c6)c6c(N)ncnc65)ccc4C3)[C@H](OC)C2)C[C@@H](O)[C@H](C)/C=C(\\C)[C@@H](O)[C@@H](OC)C(=O)[C@H](C)C[C@H](C)/C=C/C=C/C=C/1C", "system": "human patients, plasma", "conditions": "intravenous, 10 mg, cycle 1 day 1, weekly dosing, 1 h infusion, arithmetic mean", "endpoint": "Cmax", "value": "362 ng/mL"}
{"SMILES": "CN(C(=O)n1cnc(-c2cccnc2)c1)[C@H]1CC[C@H](O)CC1", "system": "cynomolgus monkeys, plasma", "conditions": "oral, 1.0 mg/kg", "endpoint": "Tmax", "value": "2 h"}
{"SMILES": "COc1nc(-c2cc(C)c(N[C@@H](C)c3cc(F)cc(F)c3)nn2)ccc1-n1cnc(C)c1", "system": "cynomolgus monkey, male, plasma", "conditions": "intravenous, 1 mg/kg", "endpoint": "Tmax", "value": "0.25 h"}
{"SMILES": "c1ccc2c(c1)ccc1c3ccccc3ccc21", "system": "PDMS-water partitioning", "conditions": "PAH compilation", "how to read": "relative to: maximum over minimum K", "endpoint": "literature range factor", "value": 9}
{"SMILES": "N#Cc1ccc2c(c1)[C@H]1CCCN(C(=O)c3ccc4[nH]cnc4c3)[C@H]1C2", "system": "human", "conditions": "10 mg, day 15", "how to read": "relative to: baseline", "endpoint": "ACTH level change", "value": "1.6 pmol/L"}
{"SMILES": "O=C(Cc1ccc2ccccc2c1)Nc1cc(C2CCC2)[nH]n1", "system": "mouse plasma", "conditions": "0.5 ng/mL, 8 h, ambient temperature, bench-top stability", "endpoint": "accuracy", "value": "101%"}
{"SMILES": "Cc1cc(-c2nccc3c2ccn3CC(=O)Nc2ccc(-c3cnccn3)cn2)ccn1", "system": "human", "conditions": "15 mg once daily, multiple ascending dose", "endpoint": "subjects with nasal discomfort", "value": "0%"}
{"SMILES": "CC(C)c1nc(N(C)S(C)(=O)=O)nc(-c2ccc(F)cc2)c1/C=C/[C@@H](O)C[C@@H](O)CC(=O)O", "test": "population pharmacokinetic model", "system": "people living with HIV", "conditions": "oral, dose not given, bootstrap median", "endpoint": "central volume of distribution", "value": "144 L"}
{"SMILES": "CCN1/C(=C/C(C)=O)Sc2ccc(F)cc21", "system": "cynomolgus monkey", "conditions": "oral, 30 mg/kg, 4 h post-dose", "endpoint": "diastolic blood pressure", "value": "75 ± 3 mmHg"}
{"SMILES": "CCCCCN1C[C@H](O)[C@@H](O)[C@H](O)[C@@H]1CO", "test": "LC-MS/MS", "system": "mouse Hexb-/- male, plasma", "conditions": "300 mg/kg/day, geometric mean", "endpoint": "plasma concentration", "value": "2710 ng/mL"}
{"SMILES": "N[C@@H](CC(=O)N1CCn2c(nnc2C(F)(F)F)C1)Cc1cc(F)c(F)cc1F", "system": "male human, plasma", "conditions": "oral, 100 mg single dose", "endpoint": "AUC(0-2)", "value": "474 ± 198 ng·h/mL"}
{"SMILES": "CN[C@@H]1COc2c(S(=O)(=O)NC(=O)Nc3c4c(cc5c3CCC5)CCC4)cnn2C1", "system": "healthy human volunteers, urine", "conditions": "oral, 600 mg, fasted", "endpoint": "amount excreted in urine 0-48 h", "value": "74.8 mg"}
{"SMILES": "O=C(O)CCCOc1ccc([18F])cc1-c1cc(-c2ccccc2C(F)(F)F)n(-c2ccccc2)n1", "test": "gamma counting", "system": "male ddY mice, liver", "conditions": "intravenous, 2.1 MBq, 5 min", "endpoint": "radioactivity uptake", "value": "2.57 ± 0.13 SUV"}
{"SMILES": "CNc1ccc(-c2nc3ccc(O)cc3s2)cc1 [carbon-11 labelled]", "test": "ex vivo biodistribution", "system": "B6SJL mouse, normal, heart", "conditions": "intravenous, 30 min", "endpoint": "SUV", "value": "0.325 ± 0.158"}
{"SMILES": "CCn1cc(C(=O)N2CCOCC2)c(=O)c2cc(NC3Cc4ccccc4C3)cnc21", "system": "human, fed", "conditions": "oral suspension, 2000 mg single dose, arithmetic mean", "endpoint": "AUC(0-inf)", "value": "54600 ng·h/mL"}
{"SMILES": "Cc1cc(NC2CCN(C(=O)OC3CCN(C(=O)/C=C/CN(C)C)C3)CC2)n2ncc(C(C)C)c2n1 (stereo not shown)", "test": "Phase I dose escalation CTCAE v4.0, refers to: Headache", "system": "patients with advanced solid tumours", "conditions": "dose not given, all dose schedules any grade", "endpoint": "patients with adverse event", "value": "9%"}
{"SMILES": "CNCCOC12CC3(C)CC(C)(CC(Cn4ncc(-c5ccc(N6CCc7cccc(C(=O)Nc8nc9ccccc9s8)c7C6)nc5C(=O)O)c4C)(C3)C1)C2", "system": "anaesthetised male beagle dogs", "conditions": "intravenous bolus, 0.03 mg/kg, 90 min", "how to read": "relative to: baseline", "endpoint": "cardiac output change", "value": "-29%"}
{"SMILES": "C=CC(=O)N1CCC[C@@H](n2nc(-c3ccc(Oc4ccccc4)cc3)c3c(N)ncnc32)C1", "system": "Wistar rat, plasma", "conditions": "oral, dose not given, suspension", "endpoint": "AUC(0-48 h)", "value": "3700 ± 76.3 ng·h/mL"}
{"SMILES": "CC(C)(C(=O)N1CCOc2c(C#N)cncc2C1)C(F)F", "test": "refers to: Headache", "system": "human", "conditions": "oral, 20 mg once daily, 14 days, multiple ascending dose", "endpoint": "subjects with adverse event", "value": "0%"}
{"SMILES": "CCN1CCN(Cc2ccc(Nc3ncc(F)c(-c4cc(F)c5nc(C)n(C(C)C)c5c4)n3)nc2)CC1", "system": "healthy human, fasted, plasma", "conditions": "oral, 200 mg, capsule", "endpoint": "Vss/F", "value": "1930 L"}
{"SMILES": "CNC(=O)c1cc(Oc2ccc(NC(=O)Nc3ccc(Cl)c(C(F)(F)F)c3)c(F)c2)cc[n+]1[O-]", "test": "long-term stability", "system": "mouse plasma", "conditions": "75 ng/mL, 6 months, -80 °C", "endpoint": "accuracy", "value": "100%"}
{"SMILES": "NC1(C(=O)N[C@@H](CCO)c2ccc(Cl)cc2)CCN(c2nc[nH]c3nccc2-3)CC1", "system": "metastatic CRPC patients", "conditions": "480 mg b.i.d., any grade, treatment-related, together with: enzalutamide 160 mg daily", "endpoint": "incidence of Dysgeusia", "value": "20%"}
{"SMILES": "Cl.[2H]C([2H])([2H])CC(=O)c1cnc(NC(=O)C2CC2)cc1Nc1cccc(-c2ncn(C([2H])([2H])[2H])n2)c1OC", "test": "geometric mean", "system": "human", "conditions": "oral, 100 mg single dose, fasted, liquid", "endpoint": "half-life", "value": "8.11 h"}
{"SMILES": "OC[C@H]1O[C@@H](c2ccc(Cl)c(Cc3ccc(O[C@H]4CCOC4)cc3)c2)[C@H](O)[C@@H](O)[C@@H]1O", "system": "Japanese type 1 diabetes patients, blood", "conditions": "10 mg, day 28", "how to read": "relative to: baseline", "endpoint": "change in Bicarbonate", "value": "-1.2 mEq/L"}
{"SMILES": "CNC(=O)c1ccc(-c2cnc3ncc(Cc4ccc5ncccc5c4)n3n2)cc1F", "system": "HCC patients", "conditions": "oral, 600 mg twice daily, all grades RP2D expansion", "endpoint": "abdominal pain incidence", "value": "18%"}
{"SMILES": "C[C@H]1Oc2cc(cnc2N)-c2c(nn(C)c2C#N)CN(C)C(=O)c2ccc(F)cc21", "system": "Balb/c nude mouse female, plasma", "conditions": "5 mg/kg twice daily for 5 days, 1 h", "endpoint": "free plasma concentration", "value": "1400 nM"}
{"SMILES": "CCC(=O)N(CCC(c1ccc2c(c1)OCO2)c1ccccc1OC)Cc1ccccc1 (stereo not shown)", "system": "female athymic nude mouse, blood", "conditions": "i.p., 60 mg/kg twice daily, 14 days, group mean", "endpoint": "Ca", "value": "8.93 mg/dL"}
{"SMILES": "CCc1cc(C(=O)NC)c2nccc(N3CCc4c(cc(Cn5ccnc5)cc4-c4cn(C)nc4C(F)(F)F)C3=O)c2c1", "system": "Sprague Dawley rats", "conditions": "oral, 100 mg/kg twice daily, 7 days", "how to read": "relative to: vehicle", "endpoint": "reticulocyte percentage change", "value": "-39.5%"}
{"SMILES": "O=C(O)CCC(=O)O.[2H]C([2H])([2H])Oc1cc(C)c2[nH]ccc2c1CN1CC[C@@H](C2CC2)C[C@H]1c1ccc(C(=O)O)cc1", "test": "multiple ascending dose", "system": "healthy Chinese subjects", "conditions": "125 mg twice daily", "endpoint": "subjects with elevated bilirubin TEAE", "value": "0%"}
{"SMILES": "CC(=O)O[C@H]1C(=O)[C@@]2(C)[C@H]([C@H](OC(=O)c3ccccc3)[C@]3(O)C[C@H](OC(=O)[C@H](O)[C@@H](NC(=O)c4ccccc4)c4ccccc4)C(C)=C1C3(C)C)[C@]1(OC(C)=O)CO[C@@H]1C[C@@H]2O", "test": "refers to: peripheral neuropathy", "system": "patients with advanced solid tumours", "conditions": "intravenous, dose not given, phase Ib, related to compound", "endpoint": "adverse events, all grades", "value": "15%"}
{"SMILES": "CC(C)[C@@H](CS(=O)(=O)C(C)C)N1C(=O)[C@@](C)(CC(=O)O)C[C@H](c2cccc(Cl)c2)[C@H]1c1ccc(Cl)cc1", "system": "FVB mouse, Abcb1a/b and Abcg2 knockout, spinal cord", "conditions": "intravenous, 20 mg/kg, unit not given", "how to read": "relative to: knockout Kp over wild-type Kp", "endpoint": "spinal cord distribution advantage", "value": 89}
{"SMILES": "C=C[C@@](C)(/C=C/c1ccc(O)cc1)CCC=C(C)C", "system": "rat plasma", "conditions": "8 ng/mL, 2 weeks, -70 °C, post-preparative stability", "endpoint": "accuracy", "value": "101%"}
{"SMILES": "C[C@H]1O[C@@H](O[C@H]2[C@@H](O)C[C@H](O[C@H]3[C@@H](O)C[C@H](O[C@H]4CC[C@@]5(C)[C@H](CC[C@@H]6[C@@H]5C[C@@H](O)[C@]5(C)[C@@H](C7=CC(=O)OC7)CC[C@]65O)C4)O[C@@H]3C)O[C@@H]2C)C[C@H](O)[C@@H]1O", "test": "refers to: oral herpes", "system": "healthy men", "conditions": "dose not given, 8 days, treatment-emergent, crossover trial", "endpoint": "subjects with adverse event", "value": "0%"}
{"SMILES": "CN(C(=O)n1cnc(-c2cccnc2)c1)[C@H]1CC[C@H](O)CC1", "system": "rat, cortex", "conditions": "oral, 10 mg/kg single dose, 4 h", "endpoint": "tissue concentration", "value": "31.6 ± 7 ng/g"}
{"SMILES": "COc1ccc2[nH]c([S@+]([O-])Cc3ncc(C)c(OC)c3C)nc2c1", "system": "human, dried blood spots", "conditions": "oral, 10 mg omeprazole, together with: voriconazole", "endpoint": "AUC", "value": "593 ng·h/mL"}
{"SMILES": "CCCC(CCC)C(=O)Oc1cccc(C(O)CCN)c1.O=CO (stereo not shown)", "system": "Abca4-/-Rdh8-/- mice, photic damage", "conditions": "oral, 20 mg/kg, 7 days, flash intensity 5", "endpoint": "ERG, scotopic, rod b-wave", "value": "99.9 µV and 160 µV and 97.4 µV and 132 µV and 147 µV and 191 µV"}
